Measured values collected from several papers.
Protocols differ between the studies behind these lines. ± marks the error that the study gave.

Cc1cc2c(cc1C1(c3ncc(C(=O)O)cn3)CC1)C(C)(C)CCC2(C)C
log2 fold change (RNA sequencing, item: Dlx2 mRNA; rat, brain; dose not given, 24 h, single dose; relative to: vehicle): 0.62

COc1c2c(cc3oc(COC4OC(CO)C(O)C(O)C4O)cc(=O)c13)OC(C(C)(C)O)C2 (centres unmarked)
ear edema weight increase (mouse, xylene ear edema; oral, 1 mg/kg): 5.83 ± 0.23 mg

O=c1c(OCc2ccccc2)c(-c2ccc([N+](=O)[O-])cc2)oc2ccccc12
serum HDL cholesterol (diabetic rat; 5 mg/kg, 28 days, p-nitrophenyl β-glucoside induced): 39.9 ± 1.92 mg/dL

COc1ccc2c(c1)c(CC(=O)OCOC(C)=O)c(C)n2C(=O)c1ccc(Cl)cc1
writhing count (BALB/c mice, acetic acid writhing; intraperitoneal, 10 mg/kg, 20 min count): 14.3 ± 1.43

CCCC[C@H](NC(=O)[C@@H](NC(=O)[C@H](CC(=O)O)NC(=O)[C@H](CCC(N)=O)NC(=O)[C@H](CC(C)C)NC(=O)[C@H](CC(C)C)NC(=O)[C@H](CCCN)NC(=O)[C@H](CCCNC(=N)N)NC(=O)[C@H](C)NC(=O)[C@H](CO)NC(=O)[C@H](CC(C)C)NC(=O)[C@H](CCC(N)=O)NC(=O)[C@H](CC)NC(=O)[C@H](CC(C)C)NC(=O)[C@@H](NC(=O)[C@H](CCCN)NC(=O)[C@H](CCCNC(=N)N)NC(=O)[C@H](Cc1ccc(O)cc1)NC(=O)[C@H](CO)NC(=O)[C@H](CCC(N)=O)NC(=O)[C@@H](NC(=O)[C@H](Cc1ccccc1)NC(=O)[C@@H](NC(=O)[C@H](C)NC(=O)[C@H](CC(=O)O)NC(=O)[C@H](C)NC(=O)CCc1ccc(O)cc1)[C@@H](C)CC)[C@@H](C)O)C(C)C)[C@@H](C)CC)C(=O)N[C@@H](CC(=O)O)C(=O)NCCCCNC(=N)N
serum GH level (GH release, ELISA; male rat, anaesthetised, serum; intravenous, 1 µg/kg, 5 min): 538 ± 58.3 ng/mL

CC(=O)[O-].O.[Cu+2].[O-]c1ccc(Br)cc1C=NCCN1CCOCC1
inhibition (superoxide scavenging; 240 µM): 71.6%

Cc1ncc([N+](=O)[O-])n1CCOCc1nnc(SCC(=O)c2ccc(Br)cc2)o1
DPPH scavenging (50 µg/mL, 45 min): 39.14 ± 0.22%

CC(C)(O)c1ccc(N2Cc3c(ccnc3-c3ccc(F)cc3OCC(F)(F)F)C2=O)cc1
glucosylsphingosine level (Gaucher disease mouse model, plasma; 10 mg/kg, single dose; relative to: vehicle): 99 ± 6%

Cc1sc(-c2ccc(C(F)(F)F)cc2)nc1-c1nn[nH]c1C#N
HbA1c reduction (male ZDF rat; oral, 4 mg/kg/day, 1008 h; relative to: vehicle): 0.53 percentage points

CC(C)C[C@@H]1NC(=O)[C@H](CS)NC(=O)[C@H](CCCCN)NC(=O)[C@H](CC(=O)O)N(C(=O)[C@@H](N)Cc2c[nH]c3ccccc23)CCCNC(=O)NCCCCN([C@@H](C)C(N)=O)C1=O
arthritis severity score (DBA/1 mouse collagen-induced arthritis; intraperitoneal, 360 pg/g weekly; relative to: PBS): no effect

CCCOC(=O)Cc1c(C)n(C(=O)c2ccc(Cl)cc2)c2ccc(OC)cc12
writhing count (BALB/c mice, acetic acid writhing; intraperitoneal, 10 mg/kg, 20 min count): 15.5 ± 1.06

CCCC[C@H](NC(=O)[C@@H](NC(=O)[C@H](CC(=O)O)NC(=O)[C@H](CCC(N)=O)NC(=O)[C@H](CC(C)C)NC(=O)[C@H](CC(C)C)NC(=O)[C@H](CCCN)NC(=O)[C@H](CCCNC(=N)N)NC(=O)[C@H](C)NC(=O)[C@H](CO)NC(=O)[C@H](CC(C)C)NC(=O)[C@H](CCC(N)=O)NC(=O)[C@H](CC)NC(=O)[C@H](CC(C)C)NC(=O)[C@@H](NC(=O)[C@H](CCCN)NC(=O)[C@H](CCCNC(=N)N)NC(=O)[C@H](Cc1ccc(O)cc1)NC(=O)[C@H](CO)NC(=O)[C@H](CCC(N)=O)NC(=O)[C@@H](NC(=O)[C@H](Cc1ccccc1)NC(=O)[C@@H](NC(=O)[C@H](C)NC(=O)[C@H](CC(=O)O)NC(=O)[C@H](C)NC(=O)[C@H](Cc1ccc(O)cc1)NC)[C@@H](C)CC)[C@@H](C)O)C(C)C)[C@@H](C)CC)C(=O)N[C@@H](CC(=O)O)C(=O)N[C@@H](CCCNC(=N)N)C(=O)NC
serum GH level (GH release, ELISA; male Sprague-Dawley rat, anaesthetised, serum; subcutaneous, 3 µg/kg, 0 min): 21.3 ± 4.8 ng/mL

CCOP(=O)(CC(=O)Nc1ccc(S(=O)(=O)N(CC(N)=O)c2ccc(N(CC(N)=O)S(=O)(=O)c3ccc(OC)cc3)c3ccccc23)cc1)OCC
platform crossings (Morris water maze probe trial; APP/PS1 mice; intragastric, 40 mg/kg, 60 days, lentivirus intracerebroventricular; relative to: untreated APP/PS1): increased

O=C(CCN1CCC(O)CC1)Nc1nc(-c2ccccc2)cs1
DPPH radical scavenging (0.2 M, 1 h): 36%

O=C1CCN(Cc2ccccc2)CC1C(C[N+](=O)[O-])c1ccccc1 (centres unmarked)
number of writhes (mouse acetic acid writhing; 25 mg/kg, added: haloperidol 1 mg/kg pretreatment): 56 ± 1.05

C=CC(=O)N1C[C@H](C)N(c2nc(OC[C@@]34CCCN3C[C@H](F)C4)nc3c(F)c(-c4ccc(F)c5sc(N)c(C#N)c45)c(C(F)(F)F)cc23)C[C@H]1C
tumour regression (mouse, KCP lung tumour model; oral, 10 mg/kg once daily, 42 days): 56%

CC[C@H]1[C@@H](O)[C@@H]2[C@H](CC[C@]3(C)[C@@H]([C@H](C)CCOS(=O)(=O)[O-])CC[C@@H]23)[C@@]2(C)CC[C@@H](O)C[C@@H]12.[Na+]
reduction of fibrosis stage (ob/ob NASH mouse, liver; 10 mg/kg, 8 weeks; relative to: baseline): ~1 points

O=c1c(OCc2ccccc2)c(-c2cccc([N+](=O)[O-])c2)oc2ccccc12
serum alkaline phosphatase (diabetic rat; 5 mg/kg, p-nitrophenyl β-glucoside induced): 211 ± 4.82 IU

CCCC[C@H](NC(=O)[C@@H](NC(=O)[C@H](CC(=O)O)NC(=O)[C@H](CCC(N)=O)NC(=O)[C@H](CC(C)C)NC(=O)[C@H](CC(C)C)NC(=O)[C@H](CCCN)NC(=O)[C@H](CCCNC(=N)N)NC(=O)[C@H](C)NC(=O)[C@H](CO)NC(=O)[C@H](CC(C)C)NC(=O)[C@H](CCC(N)=O)NC(=O)[C@H](CC)NC(=O)[C@H](CC(C)C)NC(=O)[C@@H](NC(=O)[C@H](CCCN)NC(=O)[C@H](CCCNC(=N)N)NC(=O)[C@H](Cc1ccc(O)cc1)NC(=O)[C@H](CO)NC(=O)[C@H](CCC(N)=O)NC(=O)[C@@H](NC(=O)[C@H](Cc1ccccc1)NC(=O)[C@@H](NC(=O)[C@H](C)NC(=O)[C@H](CC(=O)O)NC(=O)[C@@H](C)NC(=O)CCc1ccc(O)cc1)[C@@H](C)CC)[C@@H](C)O)C(C)C)[C@@H](C)CC)C(=O)N[C@@H](CC(=O)O)C(=O)N[C@@H](CCCNC(=N)N)C(=O)NC
serum GH level (GH release, ELISA; male Sprague-Dawley rat, anaesthetised, serum; subcutaneous, 3 µg/kg, 30 min): 121 ± 8.4 ng/mL

COc1cc([C@@H]2c3cc4c(cc3[C@@H](OCc3cc(-c5cc(C#N)cc(C#N)c5)no3)[C@H]3COC(=O)C23)OCO4)cc(OC)c1OC (some centres unmarked)
IC50 (tubulin polymerisation, inhibitor): 1.43 µM

CCCC[C@H](NC(=O)[C@@H](NC(=O)[C@H](CC(=O)O)NC(=O)[C@H](CCC(N)=O)NC(=O)[C@H](CC(C)C)NC(=O)[C@H](CC(C)C)NC(=O)[C@H](CCCN)NC(=O)[C@H](CCCNC(=N)N)NC(=O)[C@H](C)NC(=O)[C@H](CO)NC(=O)[C@H](CC(C)C)NC(=O)[C@H](CCC(N)=O)NC(=O)[C@H](CC)NC(=O)[C@H](CC(C)C)NC(=O)[C@@H](NC(=O)[C@H](CCCN)NC(=O)[C@H](CCCNC(=N)N)NC(=O)[C@H](Cc1ccc(O)cc1)NC(=O)[C@H](CO)NC(=O)[C@H](CCC(N)=O)NC(=O)[C@@H](NC(=O)[C@H](Cc1ccccc1)NC(=O)[C@@H](NC(=O)[C@H](C)NC(=O)[C@H](CC(=O)O)NC(=O)[C@H](C)NC(=O)CCc1ccc(O)cc1)[C@@H](C)CC)[C@@H](C)O)C(C)C)[C@@H](C)CC)C(=O)N[C@@H](CC(=O)O)C(=O)N[C@@H](CCCNC(=N)N)C(=O)NCCCCC(N)=O
serum GH level (GH release, ELISA; male Sprague-Dawley rat, anaesthetised, serum; subcutaneous, 3 µg/kg, 15 min): 259 ± 31.1 ng/mL

CCCCCCOC(=O)Cc1c(C)n(C(=O)c2ccc(Cl)cc2)c2ccc(OC)cc12
writhing count (BALB/c mice, acetic acid writhing; intraperitoneal, 30 mg/kg, 20 min count): 10 ± 1

Cc1ccc(-c2oc3ccccc3c(=O)c2OCc2ccccc2)cc1
serum HDL cholesterol (diabetic rat; 5 mg/kg, 28 days, p-nitrophenyl β-glucoside induced): 42.8 ± 1.9 mg/dL

CCCC[C@H](NC(=O)[C@@H](NC(=O)[C@H](CC(=O)O)NC(=O)[C@H](CCC(N)=O)NC(=O)[C@H](CC(C)C)NC(=O)[C@H](CC(C)C)NC(=O)[C@H](CCCN)NC(=O)[C@H](CCCNC(=N)N)NC(=O)[C@H](C)NC(=O)[C@H](CO)NC(=O)[C@H](CC(C)C)NC(=O)[C@H](CCC(N)=O)NC(=O)[C@H](CC)NC(=O)[C@H](CC(C)C)NC(=O)[C@@H](NC(=O)[C@H](CCCN)NC(=O)[C@H](CCCNC(=N)N)NC(=O)[C@H](Cc1ccc(O)cc1)NC(=O)[C@H](CO)NC(=O)[C@H](CCC(N)=O)NC(=O)[C@@H](NC(=O)[C@H](Cc1ccccc1)NC(=O)[C@@H](NC(=O)[C@H](C)NC(=O)[C@H](CC(=O)O)NC(=O)[C@H](C)NC(=O)[C@H](Cc1ccc(O)cc1)NC)[C@@H](C)CC)[C@@H](C)O)C(C)C)[C@@H](C)CC)C(=O)N[C@@H](CC(=O)O)C(=O)NCCCCNC(=N)N
serum GH level (GH release, ELISA; male Sprague-Dawley rat, anaesthetised, serum; subcutaneous, 3 µg/kg, 0 min): 25.3 ± 3.9 ng/mL

C=C(c1cc(F)c(C(=O)O)c(F)c1)c1cc2c(cc1C)C(C)(C)CCC2(C)C
log2 fold change (RNA sequencing, item: Inmt mRNA; rat, brain; dose not given, 24 h, single dose; relative to: vehicle): 1.93

Cc1ccc(C(=O)Nc2ccc(CP(=O)(O)O)cc2CP(=O)(O)O)cc1NC(=O)c1cccc(NC(=O)Nc2cccc(C(=O)Nc3cc(C(=O)Nc4ccc(CP(=O)(O)O)cc4CP(=O)(O)O)ccc3C)c2)c1
APTT (human plasma; 423 µM): 73.2 ± 7.6 s

CC(=O)N[C@@H](CC(N)=O)C(=O)NCC(=O)N[C@@H](C)C(=O)N[C@@H](C)C(N)=O
rate constant succinimide to α-Asp (1H NMR; sodium phosphate buffer 50 mM; pH 6.3, 55 °C): 0.077 h⁻¹

C[C@H](NC(=O)COC(=O)[C@H](C)NC(=O)CO)C(=O)O
depolymerization rate constant (water; pH 7, 65 °C): 62.3 h⁻¹

COc1ccc(C2CC(c3ccc(C)cc3)=Nc3ccccc3S2)cc1 (centres unmarked)
blood glucose (rat, normal, overnight fasted; oral, 20 mg/kg, 30 min, oral glucose tolerance test, added: glucose 3 g/kg oral): 116 ± 4.45 mg/dL

CCNC(=O)c1noc(-c2cc(C(C)C)c(O)cc2O)c1NC(=O)CCN1CCOCC1
protein level (Western blot, item: Hsp70; athymic nude mice, GTL-16 xenograft, tumour; dose not given, 6 h after last dose): increased

O=c1c(OCc2ccccc2)c(-c2ccc(Cl)cc2)oc2ccccc12
serum total cholesterol (diabetic rat; 7.5 mg/kg, 28 days, p-nitrophenyl β-glucoside induced): 140 ± 4.76 mg/dL

COc1ccc2c(c1)c(CC(=O)OCC(=O)OC(C)(C)C)c(C)n2C(=O)c1ccc(Cl)cc1
latency of nociceptive response (hot plate test; BALB/c mice; 50 mg/kg, 0 min): 9.55 ± 0.48 s

Repeated from above:
Cc1ccc(C(=O)Nc2ccc(CP(=O)(O)O)cc2CP(=O)(O)O)cc1NC(=O)c1cccc(NC(=O)Nc2cccc(C(=O)Nc3cc(C(=O)Nc4ccc(CP(=O)(O)O)cc4CP(=O)(O)O)ccc3C)c2)c1
APTT (human plasma; 423 µM): 73.2 ± 7.6 s

C=CC(=O)N1C[C@H](C)N(c2nc(OC[C@@]34CCCN3C[C@H](F)C4)nc3c(F)c(-c4ccc(F)c5sc(N)c(C#N)c45)c(C(F)(F)F)cc23)C[C@H]1C
tumour regression (mouse, KCP lung tumour model; oral, 10 mg/kg once daily, 42 days): 56%

CCCC[C@H](NC(=O)[C@@H](NC(=O)[C@H](CC(=O)O)NC(=O)[C@H](CCC(N)=O)NC(=O)[C@H](CC(C)C)NC(=O)[C@H](CC(C)C)NC(=O)[C@H](CCCN)NC(=O)[C@H](CCCNC(=N)N)NC(=O)[C@H](C)NC(=O)[C@H](CO)NC(=O)[C@H](CC(C)C)NC(=O)[C@H](CCC(N)=O)NC(=O)[C@H](CC)NC(=O)[C@H](CC(C)C)NC(=O)[C@@H](NC(=O)[C@H](CCCN)NC(=O)[C@H](CCCNC(=N)N)NC(=O)[C@H](Cc1ccc(O)cc1)NC(=O)[C@H](CO)NC(=O)[C@H](CCC(N)=O)NC(=O)[C@@H](NC(=O)[C@H](Cc1ccccc1)NC(=O)[C@@H](NC(=O)[C@H](C)NC(=O)[C@H](CC(=O)O)NC(=O)[C@@H](C)NC(=O)CCc1ccc(O)cc1)[C@@H](C)CC)[C@@H](C)O)C(C)C)[C@@H](C)CC)C(=O)N[C@@H](CC(=O)O)C(=O)N[C@@H](CCCNC(=N)N)C(=O)NC
serum GH level (GH release, ELISA; male Sprague-Dawley rat, anaesthetised, serum; subcutaneous, 3 µg/kg, 30 min): 121 ± 8.4 ng/mL

CC[C@H]1[C@@H](O)[C@@H]2[C@H](CC[C@]3(C)[C@@H]([C@H](C)CCOS(=O)(=O)[O-])CC[C@@H]23)[C@@]2(C)CC[C@@H](O)C[C@@H]12.[Na+]
reduction of fibrosis stage (ob/ob NASH mouse, liver; 10 mg/kg, 8 weeks; relative to: baseline): ~1 points

CCCCCCOC(=O)Cc1c(C)n(C(=O)c2ccc(Cl)cc2)c2ccc(OC)cc12
writhing count (BALB/c mice, acetic acid writhing; intraperitoneal, 30 mg/kg, 20 min count): 10 ± 1
